Published values gathered from unrelated publications.
Compare with care: the assays were run in different laboratories. Numbers after ± are the reported error.
Organism: Trypanosoma brucei rhodesiense

| Compound | assay | system | setting | IC50 |
| --- | --- | --- | --- | --- |
| O=[N+]([O-])c1ncn(CCCN2CCN(Cc3ccc(C(F)(F)F)cc3)CC2)n1 | growth | STIB900 | bloodstream trypomastigotes | 0.5 to 6 µM |
| O=C1NC(=S)S/C1=C\c1c[nH]c2ccc([N+](=O)[O-])cc12 | – | trypomastigotes, IL1501 | – | 81.9 ± 2.29 µM |
| CCC[C@H](NC(=O)CN1C(=O)SC(=Cc2ccc3c(c2)OCO3)C1=O)C(=O)OCC | cell viability | IL1501 | 72 h | > 58 µM |
| O=[N+]([O-])c1ncn(CCCN2CCN(c3ccc(C(F)(F)F)cc3)CC2)n1 | growth | STIB900 bloodstream trypomastigotes | – | 0.5 to 6 µM |
| O=[N+]([O-])c1ncn(CCCNc2nc(-c3ccccc3)nc3ccccc23)n1 | growth | STIB900 | bloodstream trypomastigotes | 0.5 to 6 µM |
| O=C1NC(=S)S/C1=C\c1cn(Cc2cccc(Cl)c2)c2ccc([N+](=O)[O-])cc12 | – | trypomastigotes, IL1501 | – | > 61 µM |
| O=[N+]([O-])c1nccn1CCCCNc1nc2ccc(Cl)cc2s1 | growth | STIB900 bloodstream trypomastigotes | – | 0.5 to 6 µM |
| O=[N+]([O-])c1ccc2[nH]ccc2c1 | – | trypomastigotes, IL1501 | – | > 154 µM |
| O=[N+]([O-])c1ncn(CCCNc2nc3ccccc3s2)n1 | growth | STIB900 bloodstream trypomastigotes | – | 0.5 to 6 µM |
| O=C(Cn1cnc([N+](=O)[O-])n1)Nc1ccc(-c2ccc(Cl)cc2)cc1 | parasite growth | STIB900 trypomastigotes | – | 0.5 to 6 µM |

Excerpt of the above:
| Compound | assay | system | setting | IC50 |
| --- | --- | --- | --- | --- |
| O=C(Cn1cnc([N+](=O)[O-])n1)Nc1ccc(-c2ccc(Cl)cc2)cc1 | parasite growth | STIB900 trypomastigotes | – | 0.5 to 6 µM |
